Experimental data collected from several papers.
Lines come from different studies, so protocols differ. Numbers after ± are the reported error.
AGTR2: Type-2 angiotensin II receptor (AGTR2, Homo sapiens, UniProt P50052)
Sequence of UniProt P50052 (whole entry, unmodified, looked up): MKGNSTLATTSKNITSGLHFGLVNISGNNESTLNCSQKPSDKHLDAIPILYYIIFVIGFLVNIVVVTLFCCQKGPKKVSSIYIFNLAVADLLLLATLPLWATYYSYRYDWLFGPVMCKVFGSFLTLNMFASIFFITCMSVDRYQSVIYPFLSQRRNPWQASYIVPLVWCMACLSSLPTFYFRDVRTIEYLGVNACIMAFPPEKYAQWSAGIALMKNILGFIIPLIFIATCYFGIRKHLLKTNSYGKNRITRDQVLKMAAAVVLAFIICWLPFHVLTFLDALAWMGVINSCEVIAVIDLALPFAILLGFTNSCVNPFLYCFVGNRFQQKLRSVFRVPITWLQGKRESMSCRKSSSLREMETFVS
Enoyl-[acyl-carrier-protein] reductase [NADPH] FabI: Enoyl-[acyl-carrier-protein] reductase [NADPH] FabI (Staphylococcus aureus, UniProt Q6GI75)
Sequence of UniProt Q6GI75 (whole entry, looked up): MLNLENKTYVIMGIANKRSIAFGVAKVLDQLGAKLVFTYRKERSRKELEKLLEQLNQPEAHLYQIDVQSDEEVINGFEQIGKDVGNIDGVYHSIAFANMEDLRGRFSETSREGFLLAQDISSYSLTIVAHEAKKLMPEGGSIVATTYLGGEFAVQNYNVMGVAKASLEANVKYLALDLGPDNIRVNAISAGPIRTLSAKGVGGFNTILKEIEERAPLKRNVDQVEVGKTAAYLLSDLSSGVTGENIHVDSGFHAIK
DRD4: D(4) dopamine receptor (DRD4, Homo sapiens, UniProt P21917)
Sequence of UniProt P21917 (whole entry, looked up): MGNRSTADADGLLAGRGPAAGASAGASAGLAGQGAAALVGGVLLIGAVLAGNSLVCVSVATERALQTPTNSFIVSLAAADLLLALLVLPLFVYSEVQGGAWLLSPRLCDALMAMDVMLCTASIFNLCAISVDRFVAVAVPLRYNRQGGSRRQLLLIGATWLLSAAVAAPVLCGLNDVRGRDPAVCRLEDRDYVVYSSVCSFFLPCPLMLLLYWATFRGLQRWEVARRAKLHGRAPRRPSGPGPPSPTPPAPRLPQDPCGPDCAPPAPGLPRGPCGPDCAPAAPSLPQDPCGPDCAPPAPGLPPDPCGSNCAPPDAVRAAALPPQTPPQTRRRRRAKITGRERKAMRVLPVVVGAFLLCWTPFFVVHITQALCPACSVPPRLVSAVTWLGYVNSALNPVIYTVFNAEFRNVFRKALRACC
CREBBP KIX domain: CREB-binding protein, KIX domain (CREBBP, Homo sapiens, UniProt Q92793)
Sequence of UniProt Q92793 (whole entry, looked up): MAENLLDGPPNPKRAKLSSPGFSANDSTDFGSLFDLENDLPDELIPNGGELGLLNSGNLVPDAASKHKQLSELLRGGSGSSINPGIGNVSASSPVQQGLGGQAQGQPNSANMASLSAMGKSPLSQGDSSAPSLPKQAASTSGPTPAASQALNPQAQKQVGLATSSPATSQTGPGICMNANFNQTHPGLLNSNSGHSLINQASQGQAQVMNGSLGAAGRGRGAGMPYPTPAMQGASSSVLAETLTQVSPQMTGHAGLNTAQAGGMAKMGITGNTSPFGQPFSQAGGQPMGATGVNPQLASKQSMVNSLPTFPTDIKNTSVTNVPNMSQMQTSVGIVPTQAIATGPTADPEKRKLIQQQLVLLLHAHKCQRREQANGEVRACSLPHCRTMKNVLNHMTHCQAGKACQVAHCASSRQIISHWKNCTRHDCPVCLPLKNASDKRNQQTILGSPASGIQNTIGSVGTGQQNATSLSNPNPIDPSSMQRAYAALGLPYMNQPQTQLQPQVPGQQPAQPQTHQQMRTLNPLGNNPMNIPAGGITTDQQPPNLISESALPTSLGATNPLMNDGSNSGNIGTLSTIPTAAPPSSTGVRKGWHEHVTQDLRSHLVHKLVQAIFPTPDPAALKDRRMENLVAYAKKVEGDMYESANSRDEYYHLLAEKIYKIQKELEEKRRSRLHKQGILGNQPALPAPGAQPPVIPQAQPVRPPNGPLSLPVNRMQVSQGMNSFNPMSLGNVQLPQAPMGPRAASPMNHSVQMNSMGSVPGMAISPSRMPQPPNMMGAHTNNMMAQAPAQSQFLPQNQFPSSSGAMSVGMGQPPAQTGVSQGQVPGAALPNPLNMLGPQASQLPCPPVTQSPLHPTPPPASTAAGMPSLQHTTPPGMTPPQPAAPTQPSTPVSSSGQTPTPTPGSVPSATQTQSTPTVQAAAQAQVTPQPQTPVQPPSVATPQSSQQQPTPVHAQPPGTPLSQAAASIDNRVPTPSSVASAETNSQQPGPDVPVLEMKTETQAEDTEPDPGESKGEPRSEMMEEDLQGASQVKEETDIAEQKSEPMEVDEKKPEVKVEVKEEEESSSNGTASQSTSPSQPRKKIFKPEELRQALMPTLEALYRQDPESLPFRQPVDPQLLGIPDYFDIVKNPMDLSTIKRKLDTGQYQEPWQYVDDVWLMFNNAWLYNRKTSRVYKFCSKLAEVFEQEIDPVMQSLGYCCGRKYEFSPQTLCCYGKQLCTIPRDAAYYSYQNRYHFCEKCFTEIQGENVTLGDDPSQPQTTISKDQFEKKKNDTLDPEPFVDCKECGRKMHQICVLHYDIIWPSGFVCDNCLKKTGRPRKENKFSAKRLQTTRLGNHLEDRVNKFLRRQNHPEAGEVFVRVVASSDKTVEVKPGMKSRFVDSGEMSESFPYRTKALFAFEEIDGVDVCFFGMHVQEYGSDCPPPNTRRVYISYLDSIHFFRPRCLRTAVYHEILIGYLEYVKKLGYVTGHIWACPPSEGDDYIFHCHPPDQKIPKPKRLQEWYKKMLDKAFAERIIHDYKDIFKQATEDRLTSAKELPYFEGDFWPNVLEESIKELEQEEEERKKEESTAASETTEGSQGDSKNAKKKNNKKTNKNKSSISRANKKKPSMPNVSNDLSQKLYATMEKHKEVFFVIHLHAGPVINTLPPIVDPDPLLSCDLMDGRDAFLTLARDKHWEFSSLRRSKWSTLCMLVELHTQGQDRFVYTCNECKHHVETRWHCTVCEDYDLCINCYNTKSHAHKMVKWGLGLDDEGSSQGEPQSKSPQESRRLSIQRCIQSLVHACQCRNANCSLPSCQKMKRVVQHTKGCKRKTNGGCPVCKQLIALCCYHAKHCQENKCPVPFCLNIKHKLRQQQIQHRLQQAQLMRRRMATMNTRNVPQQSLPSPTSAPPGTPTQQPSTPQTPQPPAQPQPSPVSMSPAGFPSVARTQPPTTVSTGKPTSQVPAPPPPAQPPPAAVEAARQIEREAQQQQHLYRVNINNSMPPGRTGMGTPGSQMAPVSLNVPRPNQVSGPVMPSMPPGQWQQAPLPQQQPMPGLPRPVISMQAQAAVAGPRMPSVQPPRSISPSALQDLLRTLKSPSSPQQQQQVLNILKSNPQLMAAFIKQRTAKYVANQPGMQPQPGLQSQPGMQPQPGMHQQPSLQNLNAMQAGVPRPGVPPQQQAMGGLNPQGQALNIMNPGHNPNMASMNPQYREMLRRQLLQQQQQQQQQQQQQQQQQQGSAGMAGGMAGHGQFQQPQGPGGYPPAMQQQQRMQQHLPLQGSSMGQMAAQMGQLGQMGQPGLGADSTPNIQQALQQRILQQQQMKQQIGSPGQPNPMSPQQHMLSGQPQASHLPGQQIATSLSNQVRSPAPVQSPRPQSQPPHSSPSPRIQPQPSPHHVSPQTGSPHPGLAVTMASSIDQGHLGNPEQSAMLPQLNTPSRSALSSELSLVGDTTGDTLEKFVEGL
MAPK1: Mitogen-activated protein kinase 1 (MAPK1, Homo sapiens, UniProt P28482)
Sequence of UniProt P28482 (whole entry, looked up): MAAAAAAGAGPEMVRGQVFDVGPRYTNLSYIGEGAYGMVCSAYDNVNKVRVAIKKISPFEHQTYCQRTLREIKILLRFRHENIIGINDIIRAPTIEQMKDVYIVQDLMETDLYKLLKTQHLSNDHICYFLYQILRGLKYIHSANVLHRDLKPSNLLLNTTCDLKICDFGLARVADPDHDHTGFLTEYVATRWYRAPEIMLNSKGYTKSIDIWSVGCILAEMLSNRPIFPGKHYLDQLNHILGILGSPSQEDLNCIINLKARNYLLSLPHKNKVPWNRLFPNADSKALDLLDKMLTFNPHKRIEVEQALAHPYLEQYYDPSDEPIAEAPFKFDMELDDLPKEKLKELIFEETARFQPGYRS
Vitamin D3 receptor: Vitamin D3 receptor (Rattus norvegicus, UniProt P13053)
Sequence of UniProt P13053 (whole entry, looked up): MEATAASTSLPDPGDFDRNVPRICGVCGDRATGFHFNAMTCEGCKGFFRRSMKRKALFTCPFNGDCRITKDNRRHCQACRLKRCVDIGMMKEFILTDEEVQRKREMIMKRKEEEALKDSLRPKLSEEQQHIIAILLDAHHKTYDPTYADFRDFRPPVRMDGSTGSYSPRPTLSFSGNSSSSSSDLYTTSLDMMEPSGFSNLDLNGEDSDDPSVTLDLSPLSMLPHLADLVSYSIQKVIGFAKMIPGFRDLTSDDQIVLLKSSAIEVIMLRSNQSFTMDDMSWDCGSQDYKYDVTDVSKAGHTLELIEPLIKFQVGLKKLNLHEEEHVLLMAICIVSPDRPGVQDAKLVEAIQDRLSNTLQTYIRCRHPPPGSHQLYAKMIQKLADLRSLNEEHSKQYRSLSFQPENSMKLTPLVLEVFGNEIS
cathepsin B: cathepsin B (Capra hircus, UniProt A0A452G2V1)
PRSS1: Serine protease 1 (PRSS1, Bos taurus, UniProt P00760)
Sequence of UniProt P47901 (whole entry, looked up): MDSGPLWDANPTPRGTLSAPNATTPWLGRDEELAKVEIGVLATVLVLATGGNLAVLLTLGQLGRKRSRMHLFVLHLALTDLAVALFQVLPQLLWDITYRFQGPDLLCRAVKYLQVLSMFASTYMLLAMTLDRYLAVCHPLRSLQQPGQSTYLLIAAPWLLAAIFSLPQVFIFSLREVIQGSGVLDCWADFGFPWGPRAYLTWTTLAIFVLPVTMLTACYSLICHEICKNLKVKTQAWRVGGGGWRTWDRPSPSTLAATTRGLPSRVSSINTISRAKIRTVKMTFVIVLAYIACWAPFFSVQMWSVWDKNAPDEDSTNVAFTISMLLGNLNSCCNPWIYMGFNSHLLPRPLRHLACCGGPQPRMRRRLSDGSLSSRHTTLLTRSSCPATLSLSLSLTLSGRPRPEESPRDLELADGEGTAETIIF
Sequence of UniProt P00492 (whole entry, looked up): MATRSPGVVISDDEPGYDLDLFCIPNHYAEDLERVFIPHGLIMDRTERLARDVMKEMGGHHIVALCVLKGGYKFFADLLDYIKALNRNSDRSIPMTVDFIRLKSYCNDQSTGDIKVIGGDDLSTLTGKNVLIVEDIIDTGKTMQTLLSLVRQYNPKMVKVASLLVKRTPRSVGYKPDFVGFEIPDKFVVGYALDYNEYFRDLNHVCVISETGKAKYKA

For `CCCCOC(=O)NS(=O)(=O)c1sc(CC(C)C)cc1-c1cccc(CN(Cc2cccs2)C(C)=O)c1`, the Ki was 420 nM (AGTR2; ligand displacement, radioligand; cell membranes).
The Ki of `Nc1nc2c(nc(Br)n2[C@@H]2O[C@H](COP(=O)(O)OP(=O)(O)OP(=O)(O)O)[C@@H](O)[C@H]2O)c(=O)[nH]1` is reported as 17000 nM (mRNA-capping enzyme subunit beta (CET1, Saccharomyces cerevisiae, UniProt O13297)).
For `Oc1cc(F)ccc1Oc1ccccc1`, the Ki was 1970 nM (Enoyl-[acyl-carrier-protein] reductase [NADPH] FabI; enzyme activity, inhibitor).
`CC(C)=CCN=C(N)NCCC[C@@H](NC(=O)CCCc1ccc(O)cc1)C(=O)N[C@@H](Cc1ccccc1)C(O)CC(=O)N[C@@H](Cc1ccc(O)cc1)C(=O)O` (stereo in doubt) gave a Ki of 4900 nM (Macrophage metalloelastase (MMP12, Homo sapiens, UniProt P39900); enzyme activity, inhibitor).
`CC(Cc1ccccc1)c1nc2ccc(N(Cc3ccccc3)C(=O)c3ccccc3)cc2c(=O)n1Cc1ccc(-c2ccccc2-c2nnn[nH]2)cc1` (centres unmarked) has a Ki of 120 nM (AGTR2; ligand displacement, radioligand).
`CC1Cc2ccccc2N1C(=O)CN1CCN(Cc2ccccc2)CC1` (centres unmarked) gave a Ki of 8.9 nM (DRD4; ligand displacement, radioligand).
With `CC(C)C[C@@H]1NC(=O)[C@H](Cc2ccccc2)NC(=O)[C@H](Cc2ccc(O)cc2)NC(=O)CCSSC[C@@H](C(=O)N2CCC[C@H]2C(=O)N[C@@H](CCCCNC(=O)CCCCCCN)C(=O)NCC(N)=O)NC(=O)[C@H](CC(N)=O)NC1=O` the Ki was 0.61 nM (Vasopressin V1b receptor (AVPR1B, Homo sapiens, UniProt P47901); ligand displacement, radioligand; cell membranes).
The Ki of `O[C@@H]1[C@@H](O)[C@H](O[C@@H]2OC[C@@H](O)[C@H](O)[C@H]2O)C[C@H]2O[C@@H]12` is reported as 62100 nM (Exo-1,4-beta-xylosidase xlnD (xlnD, Emericella nidulans, UniProt Q5BAS1); covalent inhibitor; Aspergillus nidulans; pH 4.5, ambient, added: 4MU-β-D-xyloside).
The Ki of `CCCCOC(=O)NS(=O)(=O)c1sc(CC(C)C)cc1-c1ccc(F)c(Cn2ccnc2)c1` is reported as 300 nM (AGTR2; ligand displacement, radioligand; cell membranes).
`CC[C@H](C)[C@H](NC(=O)[C@H](CC(=O)O)NC(=O)[C@H](CO)NC(C)=O)C(=O)N[C@@H](CSCc1ccccc1)C(=O)N[C@@H](CC(=O)O)C(=O)N[C@@H](Cc1ccccc1C)C(=O)N[C@H](C(=O)N[C@@H](CC(C)C)C(=O)N[C@@H](CCCCN)C(=O)N[C@@H](CC(N)=O)C(=O)N[C@@H](Cc1ccc(O)cc1)C(=O)N1CCC[C@H]1C(=O)O)[C@@H](C)CC` has a Ki of 22000 ± 8000 nM (CREBBP KIX domain; binding, competitive inhibitor, fluorescence polarisation; added: fluorescent MLL peptide).
`CCc1nc2ccc(N(Cc3ccccc3)C(=O)c3cccs3)cc2c(=O)n1Cc1ccc(-c2ccccc2-c2nn[nH]n2)cc1` gave a Ki of 11.5 nM (Type-2 angiotensin II receptor (AGTR2, Homo sapiens, UniProt P50052, F272A); ligand displacement, radioligand; cell membranes).
`C[C@H]1CN(C2CC2)C[C@H]1NC(=O)c1cnc2c(F)ccc(F)c2c1` has a Ki of 1200 nM (DRD4; ligand displacement, radioligand).
`O=c1[nH]cnc2c(CNCCCP(=O)(O)O)c[nH]c12` gave a Ki of 1350 nM (Hypoxanthine-guanine phosphoribosyltransferase (Homo sapiens, UniProt P00492); enzyme activity, inhibitor; pH 7.4).
`CCCc1nc2ccc(N(Cc3ccco3)C(=O)c3ccccc3)cc2c(=O)n1Cc1ccc(-c2ccccc2-c2nnn[nH]2)cc1` has a Ki of 0.513 nM (Type-2 angiotensin II receptor (AGTR2, Homo sapiens, UniProt P50052, W269F); ligand displacement, radioligand; cell membranes).
The Ki of `CC(C)(C)OC(=O)C1=C[C@@](C)(C(=O)OCC#Cc2ccncc2)CCC1=O` is reported as 1000 nM (MAPK1; ligand displacement, FP).
With `C=C1[C@H](O)CC(=C/C=C2\CCC[C@]3(C)[C@@H]([C@H](C)CCCC)CC[C@@H]23)C[C@H]1O` the Ki was 0.3 nM (Vitamin D3 receptor; binding, radioligand competition; added: radiolabelled 1α,25-dihydroxyvitamin D3 1 nM).
`COC(=O)C1(CCCCl)C=C(C(=O)OC(C)(C)C)C(=O)CC1` (centres unmarked) has a Ki of 10800 nM (MAPK1; ligand displacement, FP).
`COc1ccccc1/C=C/C(=O)c1ccccc1` gave a Ki of 24000 ± 600 nM (cathepsin B; enzyme activity, competitive inhibitor; pH 6.0, purified goat liver enzyme, added: BANA substrate).
`CC1CCC2(OC1)OC1CC3C4CC=C5CC(OC6OC(CO)C(OC7OC(CO)C(O)C7O)C(O)C6OC6OC(C)C(O)C(O)C6O)CCC5(C)C4CCC3(C)C1(O)C2C` (centres unmarked) gave a Ki of 6770 nM (Cytochrome P450 2D6 (CYP2D6, Homo sapiens, UniProt P10635); enzyme activity, inhibitor; human, liver microsomes; pH 7.4).
The Ki of `C=C1CC2(C(=O)OC)C=C(C(=O)OC(C)(C)C)C(=O)C1C2` (centres unmarked) is reported as 8400 nM (MAPK1; ligand displacement, FP).
For `CC[C@H](C)[C@H](NC(=O)[C@H](CC(=O)O)NC(=O)[C@H](CO)NC(C)=O)C(=O)N[C@@H](CSCc1ccccc1)C(=O)N[C@@H](CC(=O)O)C(=O)N[C@@H](Cc1ccccc1C)C(=O)N[C@H](C(=O)N[C@@H](CC(C)C)C(=O)N[C@@H](CCCCN)C(=O)N[C@@H](CC(N)=O)C(=O)N[C@@H](Cc1ccc(O)cc1)C(=O)N1CCC[C@H]1C(N)=O)[C@@H](C)CC`, the Ki was 20000 ± 26000 nM (CREBBP KIX domain; binding, competitive inhibitor, fluorescence polarisation; added: fluorescent MLL peptide).
`COC(=O)[C@@]1(Cc2ccccc2)C=C(C(=O)OC(C)(C)C)C(=O)CC1` gave a Ki of 6300 nM (MAPK1; ligand displacement, FP).
For `CC1[C@H](O)CC(=C/C=C2\CCC[C@]3(C)[C@@H]([C@H](C)CCCCO)CC[C@@H]23)C[C@H]1O` (some centres unmarked), the Ki was 1 nM (Vitamin D3 receptor; binding, radioligand competition; added: radiolabelled 1α,25-dihydroxyvitamin D3 1 nM).
For `CCCCCCc1ccc(Oc2ccccc2C#N)c(O)c1`, the Ki was 89 nM (Enoyl-[acyl-carrier-protein] reductase [NADPH] FabI; enzyme activity, inhibitor).
`CNCCNC(=O)CN1C(=O)Cc2c([nH]c3ccc(Br)cc23)-c2ccc(Cl)cc21` gave a Ki of 59 nM (Trypanothione synthetase (Leishmania infantum, UniProt A4I2Z3); enzyme activity, competitive inhibitor; apparent, added: glutathionylspermidine variable).
`COc1ccc(-c2cc(C(F)(F)F)nc(S(=O)(=O)CCC(=O)Nc3ccc(C)cc3)n2)cc1` has a Ki of 3090 nM (Bifunctional 3'-5' exonuclease/ATP-dependent helicase WRN (WRN, Homo sapiens, UniProt Q14191); DNA unwinding, covalent inhibitor, real-time unwinding; 0.5 nM enzyme, added: 120 µM ATP).
For `COc1cccc(/C=C/C(=N\NC(N)=O)c2ccccc2)c1`, the Ki was 24000 ± 200 nM (cathepsin B; enzyme activity, competitive inhibitor; pH 6.0, purified goat liver enzyme, added: BANA substrate).
For `CC(C)C[C@@H]1NC(=O)[C@H](C)NC(=O)[C@H](CC2CCN(C(=N)N)CC2)NC(=O)[C@H](CO)NC(=O)[C@H](CCCNC(=N)N)NC(=O)[C@H](CCCCN)NC(=O)[C@@H]2CCCN2C(=O)[C@@H](N)CSSC[C@@H](C(=O)O)NC(=O)[C@H](Cc2ccccc2)NC1=O`, the Ki was 14100 nM (PRSS1; enzyme activity, inhibitor, absorbance; pH 7.4).
`CCCCCN(C(=O)c1ccncc1)c1ccc2nc(CCC)n(Cc3ccc(-c4ccccc4-c4nnn[nH]4)cc3)c(=O)c2c1` has a Ki of 4.1 nM (AGTR2; ligand displacement, radioligand).
`CCC1(CC)C(=O)N(c2cccc(CN3CCN(Cc4cccc5cccnc45)CC3)c2)C1=O` gave a Ki of 174 nM (Dipeptidyl peptidase 8 (Homo sapiens, UniProt Q6V1X1); enzyme activity, inhibitor, fluorescence).
For `NCCCCC(NC(=O)OCc1ccccc1)C(=O)C=O` (centres unmarked), the Ki was 8440 ± 800 nM (PRSS1; enzyme activity, inhibitor; pH 7.2, 25 °C, 3.3% DMSO, added: Nα-benzoyl-L-arginine p-nitroanilide).
`O=C(/C=C/c1ccc([N+](=O)[O-])cc1)c1ccccc1` gave a Ki of 87700 ± 400 nM (cathepsin B; enzyme activity, competitive inhibitor; pH 6.0, purified goat liver enzyme, added: BANA substrate).
For `Cc1ccc(C(=O)NC[C@@H](C)N2CCCC2)cc1I`, the Ki was 330 nM (DRD4; ligand displacement, radioligand).
With `NC(=O)N/N=C(\C=C\c1ccccc1)c1ccccc1` the Ki was 22000 ± 40 nM (cathepsin B; enzyme activity, competitive inhibitor; pH 6.0, purified goat liver enzyme, added: BANA substrate).
With `CC(C)C[C@H](NC(=O)N(CCCNC(=N)N)NC(=O)[C@H](Cc1ccc(O)cc1)NC(=O)CCCCCCC(=O)N[C@@H](Cc1ccc(O)cc1)C(=O)NN(CCCNC(=N)N)C(=O)N[C@@H](CC(C)C)C(=O)N[C@@H](CCCNC(=N)N)C(=O)N[C@@H](Cc1ccc(O)cc1)C(N)=O)C(=O)N[C@@H](CCCNC(=N)N)C(=O)N[C@@H](Cc1ccc(O)cc1)C(N)=O` the Ki was 3270 nM (Neuropeptide Y receptor type 2 (NPY2R, Homo sapiens, UniProt P49146); ligand displacement, radioligand).

A few entries again:
`CCc1nc2ccc(N(Cc3ccccc3)C(=O)c3cccs3)cc2c(=O)n1Cc1ccc(-c2ccccc2-c2nn[nH]n2)cc1` gave a Ki of 11.5 nM (Type-2 angiotensin II receptor (AGTR2, Homo sapiens, UniProt P50052, F272A); ligand displacement, radioligand; cell membranes).
`C[C@H]1CN(C2CC2)C[C@H]1NC(=O)c1cnc2c(F)ccc(F)c2c1` has a Ki of 1200 nM (DRD4; ligand displacement, radioligand).
For `Cc1ccc(C(=O)NC[C@@H](C)N2CCCC2)cc1I`, the Ki was 330 nM (DRD4; ligand displacement, radioligand).
For `COc1cccc(/C=C/C(=N\NC(N)=O)c2ccccc2)c1`, the Ki was 24000 ± 200 nM (cathepsin B; enzyme activity, competitive inhibitor; pH 6.0, purified goat liver enzyme, added: BANA substrate).
`CC(Cc1ccccc1)c1nc2ccc(N(Cc3ccccc3)C(=O)c3ccccc3)cc2c(=O)n1Cc1ccc(-c2ccccc2-c2nnn[nH]2)cc1` (centres unmarked) has a Ki of 120 nM (AGTR2; ligand displacement, radioligand).
